Results of several laboratories.
Parts stem from different laboratories: compare values within a part only. Substitutions count along the parent as printed.

Series 1
Target: Histone acetyltransferase KAT6A, winged helix 2, GST fusion (KAT6A, Homo sapiens, UniProt Q92794, residues 85-181)
Technique: protein binding microarray
Form: double-stranded DNA, one strand shown
Sample: in vitro
Tested at: not given
Setting: 8-mer, flanks averaged, mean of 2 arrays, mostly near background
Relative to: not given
Direction: higher = stronger binding
Residues (chain): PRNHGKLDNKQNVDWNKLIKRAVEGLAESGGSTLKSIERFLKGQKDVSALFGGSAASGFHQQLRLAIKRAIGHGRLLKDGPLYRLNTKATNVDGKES
| Oligonucleotide | E-score |
| --- | --- |
| CCGTCAAC | 0.0392 |
| AAAACCAG | 0.108 |
| CCACATTA | -0.133 |
| CACTTACA | -0.0499 |
| CTCCGCTC | 0.0833 |
| CAAGAATG | -0.0304 |
| ATACGTTG | -0.199 |
| GCCCCTTA | 0.0147 |
| CTCTTCTC | -0.0462 |
| CATGCATG | 0.0239 |
| AGATCCAC | 0.0191 |
| CGTCTCTC | -0.0855 |
| CCAACGTC | -0.215 |
| ACATGGAC | -0.0921 |
| CGACCAGC | 0.123 |
| TAAACGTA | -0.147 |
| TCAATGAA | 0.00024 |
| GAGCGCAC | -0.0843 |
| CACAGCAA | 0.271 |

Series 2
Target: Interferon regulatory factor 5, full length, phosphomimetic (IRF5, Homo sapiens, UniProt Q13568-2, residues 1-514, K96S/S451D/S453D/S456D/S462D)
Technique: protein-binding microarray
Form: double-stranded DNA, one strand shown
Sample: in vitro
Tested at: 250 nM
Setting: 60-bp whole probe
With: salmon DNA 0.4 mg/ml
Relative to: random background probes
Direction: higher = stronger binding
All sequences stand within: GCCTAGCAC … GTCTTGATTCGCTTGACGCTGCTG
| Oligonucleotide | log fluorescence [z-score] |
| --- | --- |
| GACGGTTTCCTTTCCCTGATGTGCTAG | 1.22 |
| TCACACTCCAGTCTGGGACTGTGCTAG | -0.267 |
| GACTAACTGGGGACTGGAGACGTGCTA | -0.552 |
| TCAGGACTGGACTTTCGGTTAGTGCTA | 9.61 |
| TTAGGACTGGACTATTGGTTAGTGCTA | 0.226 |
| TTTAAGCTCCTATCTTATGATGTGCTA | 0.331 |
| TTAGATTTCAGTTCCGAGTAGTGCTAG | 2.03 |
| GACGGACTCGGTCTCGGGACGTGCTAG | -0.559 |
| TTTTCATTTTTTTTCATCATGTGCTAG | 3.37 |
| TGAAAACTAAGTTTATTAGAGTGCTAG | 1.34 |
| GCACTGTGCCTGCTGCCCTTGTGCTAG | -0.817 |
| TTAGGTTTCCTTATTCTTTAGTGCTAG | 1.07 |
| TTAGGTTTCTTTATCCTTTAGTGCTAG | 1.57 |
| TTAGGTTTCGACATTCGGTTAGTGCTA | 6.91 |
| AGATACCTTTAACAGTGCCTGTGCTAG | 0.102 |
| CACGGTTTCGGTTTCGGGACGTGCTAG | 10.7 |
| TTAGAAATTTCTTTCTAATTGTGCTAG | 1.56 |

Series 3
Target: CCND1, cyclin fold, Cln2 fusion (human)
Technique: yeast growth competition, sequencing
Sample: yeast
Setting: strong parent motif
Relative to: not given
Direction: higher = stronger binding
Starting sequence: CDKN1A docking peptide (human); SKACRRLFGPVDS
| Substitution | normalised enrichment score |
| --- | --- |
| SKACRRLFGPGDS [V11G] | 3.63 |
| SKACQRLFGPVDS [R5Q] | 0.205 |
| SKACRRLFGPVIS [D12I] | 1.45 |
| SKRCRRLFGPVDS [A3R] | -0.337 |
| SKACRRLTGPVDS [F8T] | -0.459 |
| SKACRWLFGPVDS [R6W] | 0.595 |
| SKACRRLFGPIDS [V11I] | 2.75 |
| SKACRRLEGPVDS [F8E] | -0.568 |
| SKACRRLFGPVMS [D12M] | 1.72 |
| SKAVRRLFGPVDS [C4V] | 1.57 |
| SKACRRLFGIVDS [P10I] | 1.24 |
| SNACRRLFGPVDS [K2N] | 2.77 |
| SKACLRLFGPVDS [R5L] | 0.707 |
| SKFCRRLFGPVDS [A3F] | 0.459 |
| SKACRRLFGPSDS [V11S] | 3.54 |
| SKAERRLFGPVDS [C4E] | 0.166 |
| SKACRHLFGPVDS [R6H] | 0.968 |
| SKACPRLFGPVDS [R5P] | 0.439 |
| SKACRREFGPVDS [L7E] | -0.139 |
| SKAIRRLFGPVDS [C4I] | 1.89 |
| SKAGRRLFGPVDS [C4G] | 0.169 |
| SKACRRLFGYVDS [P10Y] | 1.16 |

Series 4
Target: Fragile X messenger ribonucleoprotein 1, C-terminal low-complexity region (Fmr1, Mus musculus, UniProt P35922)
Technique: RNA Bind-n-Seq
Form: RNA
Sample: in vitro
Tested at: 200 nM
Setting: whole 134-nt RNA, ends assumed
With: 150 mM KCl
Relative to: input library
Direction: higher = stronger binding
All sequences stand within: GGGAGUUCUACAGUCCGACGAUC … UGGAAUUCUCGGGUGUCAAGG
| Oligonucleotide | log2 enrichment |
| --- | --- |
| CACAGACAACACGCACCCACACAGACACAGAGGGAAGGGGUUGGGAAAAGGACAGGGUGCACAGCAGGGCGGGGUAGGACCCCAGCCCCU | 0.591 |
| GUCCUGUGCUACACAUCGUAUGUACCGAAUCGGGGAAAAGGGGAAAAGGGGAAAAGGGGAAAGUAUUAUGUUACGCCGUUCGGAUCUGCA | 0.0975 |
| GUCCUGUGCUACACAUCGUAUGUACCGAAUCGGUUUUUGGGGUUUUUGGGGUUUUUGGAAAGUAUUAUGUUACGCCGUUCGGAUCUGCAC | -0.0582 |
| ACCAUGCAGGGGGGCAUCUUUGGGAAGUGGGGCAAGGGGGGGAUAGGGAGGGGGGUAACACUUUGGGAACAGGUGGUCCCAGGUCGUUUC | 0.665 |
| UCAUGUGGAUGAAGCAGAAAAAGAAGCUCAGAAGAAGCCAGCUGAAUCUCAAAAAAUAGAGCGUGAAGAUGCCCUGGCUUUUAAUUCAGC | -0.817 |
| AAGUCCUGUGCUACACAUCGUAUGUACCGAAUCAAAUUUUUAAAUUUAAAUUUAAAAAAGUAUUAUGUUACGCCGUUCGGAUCUGCACUU | -1.34 |
| UUUUCAUACCGAUCUAGAGUUCGUCCUUGCGUGGUUUAUGGUGGUGCCGAUAUUGGUCAGCAGAUUCGAGACUUGGAACGUGGAUGCCAU | 0.159 |
| CUCAAGUCCUGUGCUACACAUCGUAUGUACCGAAUCGGGAAGGGAAGGGAAGGAAAGUAUUAUGUUACGCCGUUCGGAUCUGCACUUCCA | -0.121 |
| UGGAGCUGAAGAGCCAAGAGGCUCCGAGUCUGCAGCAGCAGCCAGACCAGUACCUGGAGCCCCAGUCCCACAAGGAGCUUGGAUGUGCGG | -0.501 |
| UCCUCAAGUCCUGUGCUACACAUCGUAUGUACCGAAUCGGCGGGGCGGCGGGAAAGUAUUAUGUUACGCCGUUCGGAUCUGCACUUCCAG | 0.308 |
| CACAGACAACACGCACCCACACAGACACCGAGGGAAGGGGUUGGGAUGGGGACAGGGUGCACAGCAGGGCGGGGUAGGACCCCAGCCCCU | 1.17 |
| UCCUGUGCUACACAUCGUAUGUACCGAAUCGGGGAAAAAGGGGAAAAAGGGGAAAAAGGGAAAGUAUUAUGUUACGCCGUUCGGAUCUGC | 0.0644 |
| AGUCCUGUGCUACACAUCGUAUGUACCGAAUCGGAAAAAAAGGUUUUUGGUUUUUGGAAAGUAUUAUGUUACGCCGUUCGGAUCUGCACU | -1.36 |
| GUCCUGUGCUACACAUCGUAUGUACCGAAUCGGAAAAAAGGAAAAAAGGAAAAAAGGGGAAAGUAUUAUGUUACGCCGUUCGGAUCUGCA | -0.572 |

For quick reference, copied from above (series 3):
| Substitution | normalised enrichment score |
| --- | --- |
| SNACRRLFGPVDS [K2N] | 2.77 |
| SKAVRRLFGPVDS [C4V] | 1.57 |
| SKACRWLFGPVDS [R6W] | 0.595 |
| SKAIRRLFGPVDS [C4I] | 1.89 |
| SKAGRRLFGPVDS [C4G] | 0.169 |
| SKACRHLFGPVDS [R6H] | 0.968 |
| SKACLRLFGPVDS [R5L] | 0.707 |
| SKAERRLFGPVDS [C4E] | 0.166 |
| SKFCRRLFGPVDS [A3F] | 0.459 |
| SKACRRLFGPIDS [V11I] | 2.75 |
| SKACPRLFGPVDS [R5P] | 0.439 |
| SKRCRRLFGPVDS [A3R] | -0.337 |
